Experimental data gathered from unrelated publications.
Lines come from different studies, so protocols differ.
Cell line: DU-145

Cl.[Cl][Ru-4]123([n+]4ccccc4-c4cccc([n+]41)-c1cccc[n+]12)[n+]1ccc(-c2ccccc2)c2ccc4c(-c5ccccc5)cc[n+]3c4c21
IC50 (cell growth or viability; 72 h, 3D culture): 27.3 µM

O=C(N=P12CN3CN(CN(C3)C1)C2)c1cccc[c]1[Pd][Br].O=S(=O)([O-])c1cccc(P(c2cccc(S(=O)(=O)[O-])c2)c2cccc(S(=O)(=O)[O-])c2)c1.[Na+].[Na+].[Na+]
IC50 (cell growth or viability, MTT; 24 h): 318 µM

Cc1ccc(C(C)C)cc1.[Cl-].[Cl-].[Fe+2].[Ru+2].c1cc[cH-]c1.c1ccc(P(=NCc2ccccn2)(c2ccccc2)[c-]2cccc2)cc1
IC50 (cell growth or viability, MTT; 24 h): 148 µM

CN(C)C(=S)[S][Pd][c]1ccccc1C(=O)N=P12CN3CN(CN(C3)C1)C2
IC50 (cell growth or viability, MTT; 24 h): 135 µM

Cc1ccc2c(c1)C(=O)[C@](C)([N+](=O)[O-])[C@@H](CC(=O)NC13CC4CC(CC(C4)C1)C3)O2
IC50 (cell growth or viability, SRB; 96 h): 1.75 µM

O=C1Nc2ccccc2/C1=N/c1ccccc1C(=O)Nc1ccccc1
IC50 (cell growth or viability, MTT; 24 h): 17.4 µM

C[C@]1([N+](=O)[O-])C(=O)c2ccccc2O[C@@H]1CC(=O)Nc1nc2ccccc2s1
IC50 (cell growth or viability, SRB; 96 h): > 50 µM

Cc1ccc(C(C)C)cc1.O=C(N=P(c1ccccc1)(c1ccccc1)c1ccccc1)c1ccccn1.[Cl-].[Cl-].[Ru+2]
IC50 (cell growth or viability, MTT; 24 h): 1.55 µM

N.N.[Cl][Pt+].c1ccc2c(c1)cnc1ccccc12
IC50 (cell growth or viability; 72 h, 3D culture): 0.84 µM

NS(=O)(=O)c1ccc(/N=N/c2ccc(O)nc2O)cc1
IC50 (cell growth or viability, resazurin; 72 h): ~318 µM

COc1cc(C(=O)NC2CCC(N3CCC[C@@H](C)C3)CC2)c(F)cc1Nc1ncc2c(n1)N([C@H]1CCCC1(F)F)CC(F)(F)C(=O)N2C (stereo partly shown)
IC50 (cell growth or viability, MTT; 72 h): 0.00035 µM

CCCCOC(=O)C[C@H]1Oc2ccccc2C(=O)[C@]1(C)[N+](=O)[O-]
IC50 (cell growth or viability, SRB; 96 h): 21.1 µM

O=C(O)c1ccc([P+]([Au-][Cl])(c2ccccc2)c2ccccc2)cc1
IC50 (cell viability, XTT; 72 h): 39 µM

C[C@]1([N+](=O)[O-])C(=O)c2ccccc2O[C@@H]1CC(=O)OC1CCCCC1
IC50 (cell growth or viability, SRB; 96 h): 20.9 µM

COc1ccc(OC)c(C(c2c[nH]c3ccccc23)c2c[nH]c3ccccc23)c1
IC50 (cell growth or viability, MTT; 24 h): 16.8 µM

O=C([O][Ti+2][O]C(=O)c1ccc([P+]([Au-][Cl])(c2ccccc2)c2ccccc2)cc1)c1ccc([P+]([Au-][Cl])(c2ccccc2)c2ccccc2)cc1.c1cc[cH-]c1.c1cc[cH-]c1
IC50 (cell viability, XTT; 72 h): 6.6 µM

CC(=O)[C@@H]1CCCN1C(=O)[C@@H]1CCCN1C(=O)[C@H](Cc1ccccc1)NC(=O)OC(C)(C)C
IC50 (cell growth or viability, SRB): 13 µM

Brc1ccc(C(c2c[nH]c3ccccc23)c2c[nH]c3ccccc23)cc1
IC50 (cell growth or viability, MTT; 24 h): 9.46 µM

COC(=O)C[C@H]1Oc2ccccc2C(=O)[C@]1(C)[N+](=O)[O-]
IC50 (cell growth or viability, SRB; 96 h): > 50 µM

COc1cc(C(=O)NC2CCC(N3CCN(CC4CCC5(CCCC5)C4)CC3)CC2)c(F)cc1Nc1ncc2c(n1)N(C1CCCC1(F)F)CC(F)(F)C(=O)N2C (stereo not shown)
IC50 (cell growth or viability, MTT; 72 h): 9e-05 µM

COc1ccc(C(c2c[nH]c3ccc(Br)cc23)c2c[nH]c3ccc(Br)cc23)cc1
IC50 (cell growth or viability, MTT; 24 h): 5.58 µM

COc1cc(C2Oc3ccc(C=C4Oc5cc(O)ccc5C4=O)cc3OC2CO)cc(OC)c1O (stereo not shown)
IC50 (cell growth or viability, MTT; 72 h): 75 µM

O=C(N=P12CN3CN(CN(C3)C1)C2)c1cccc[c]1[Au]([Cl])[Cl]
IC50 (cell growth or viability, MTT; 24 h): > 125 µM

CC(=O)N[C@@H](CC(C)C)C(=O)N[C@@H](CC(C)C)C(=O)N[C@@H](CC(C)C)C(=O)N[C@@H](CC(C)C)C(=O)N[C@@H](CCCNC(=N)N)C(=O)N[C@H](C(=O)N[C@@H](CCCCN)C(=O)N[C@@H](CCCNC(=N)N)C(N)=O)C(C)C
IC50 (cell growth or viability, MTT; 72 h): 80 to 100 µM

C=C1C(=O)OC2C1CCC1(C)CC1CCC1(C)OC21 (stereo not shown)
IC50 (cell growth or viability, resazurin): 14.8 µM

COC(=O)[C@@H](NC(=O)[C@@H](NC(=O)[C@@H](NC(=O)OC(C)(C)C)C(C)C)C(C)C)C(C)C
IC50 (cell growth or viability, SRB): 17 µM

O=C(Nc1ccc(F)cc1)c1ccccc1-n1c(=O)[nH]c2ccccc2c1=O
IC50 (cell growth or viability, MTT; 24 h): 12.8 µM

COC(=O)[C@@H]1CCCN1C(=O)[C@H](C)N(C)C(=O)OC(C)(C)C
IC50 (cell growth or viability, SRB): 8 µM

Cc1ccc(C(c2c[nH]c3ccccc23)c2c[nH]c3ccccc23)cc1
IC50 (cell growth or viability, MTT; 24 h): 15 µM

CC(=O)[C@@H]1CCCN1C(=O)[C@@H]1CCCN1C(=O)[C@H](Cc1ccccc1)N(C)C(=O)OC(C)(C)C
IC50 (cell growth or viability, SRB): 1 µM

Cc1ccc(C(C)C)cc1.[Cl-].[Cl-].[Ru+2].c1ccc(P(=Nc2cccc3cccnc23)(c2ccccc2)c2ccccc2)cc1
IC50 (cell growth or viability, MTT; 24 h): 6.6 µM

A few entries again:
C[C@]1([N+](=O)[O-])C(=O)c2ccccc2O[C@@H]1CC(=O)Nc1nc2ccccc2s1
IC50 (cell growth or viability, SRB; 96 h): > 50 µM

Cc1ccc(C(C)C)cc1.O=C(N=P(c1ccccc1)(c1ccccc1)c1ccccc1)c1ccccn1.[Cl-].[Cl-].[Ru+2]
IC50 (cell growth or viability, MTT; 24 h): 1.55 µM

N.N.[Cl][Pt+].c1ccc2c(c1)cnc1ccccc12
IC50 (cell growth or viability; 72 h, 3D culture): 0.84 µM

NS(=O)(=O)c1ccc(/N=N/c2ccc(O)nc2O)cc1
IC50 (cell growth or viability, resazurin; 72 h): ~318 µM
